Experimental data gathered from unrelated publications.
Values joined by “and” are separate records of one study, mostly repeats; a detail may differ. ± marks the error that the study gave.
rep main protease: Replicase polyprotein 1ab, main protease (rep, Severe acute respiratory syndrome coronavirus 2, UniProt P0DTD1)
OPRM1: Mu-type opioid receptor (OPRM1, Homo sapiens, UniProt P35372)
Sequence of UniProt P35372 (whole entry, looked up): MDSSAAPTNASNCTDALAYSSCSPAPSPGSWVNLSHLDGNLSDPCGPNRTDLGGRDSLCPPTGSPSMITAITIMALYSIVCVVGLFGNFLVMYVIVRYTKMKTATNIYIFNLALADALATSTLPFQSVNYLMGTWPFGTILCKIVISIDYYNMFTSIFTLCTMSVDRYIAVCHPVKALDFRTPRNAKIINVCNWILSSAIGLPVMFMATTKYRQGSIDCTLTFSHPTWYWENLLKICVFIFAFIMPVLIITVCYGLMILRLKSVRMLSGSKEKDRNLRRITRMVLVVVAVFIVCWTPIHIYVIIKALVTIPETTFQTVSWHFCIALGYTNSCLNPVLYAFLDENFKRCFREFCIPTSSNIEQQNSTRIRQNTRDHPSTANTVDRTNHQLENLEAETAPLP
Sequence of UniProt P41143 (whole entry, looked up): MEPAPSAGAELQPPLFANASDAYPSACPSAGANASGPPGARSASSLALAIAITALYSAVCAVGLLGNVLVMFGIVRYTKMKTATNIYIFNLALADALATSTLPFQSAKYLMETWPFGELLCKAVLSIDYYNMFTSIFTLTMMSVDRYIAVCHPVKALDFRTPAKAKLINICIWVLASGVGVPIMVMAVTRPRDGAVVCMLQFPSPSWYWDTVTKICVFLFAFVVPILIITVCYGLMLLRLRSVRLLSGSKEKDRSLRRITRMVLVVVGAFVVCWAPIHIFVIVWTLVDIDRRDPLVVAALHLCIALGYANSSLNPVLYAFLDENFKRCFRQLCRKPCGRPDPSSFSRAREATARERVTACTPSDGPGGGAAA

O=c1c2cccc([N+](=O)[O-])c2[se]n1Cc1ccccc1  IC50 (rep main protease; enzyme activity, inhibitor, FRET): 2.01 µM
CCCCCCCCCCCCCCCC(=O)N[C@@H](CCC(=O)NCCOCCOCCC(=O)NCCOCCOCCC(=O)NCCCC[C@H](NC(=O)[C@H](CC(=O)O)NC(=O)[C@H](CC(C)C)NC(=O)[C@H](Cc1ccc(O)cc1)NC(=O)[C@H](CCCCN)NC(=O)[C@H](CO)NC(=O)[C@H](Cc1ccc(O)cc1)NC(=O)[C@H](CC(=O)O)NC(=O)[C@H](CO)NC(=O)[C@@H](NC(=O)[C@H](Cc1ccccc1)NC(=O)[C@@H](NC(=O)CNC(=O)[C@H](CCC(N)=O)NC(=O)[C@@H](CO)NC(=O)[C@@H](N)Cc1c[nH]cn1)[C@@H](C)O)[C@@H](C)O)C(=O)N[C@@H](CCCNC(=N)N)C(=O)N[C@@H](CCCNC(=N)N)C(=O)N[C@@H](C)C(=O)N[C@@H](CCC(N)=O)C(=O)N[C@@H](CC(=O)O)C(=O)N[C@@H](Cc1ccccc1)C(=O)N[C@H](C(=O)N[C@@H](CCC(N)=O)C(=O)N[C@@H](Cc1c[nH]c2ccccc12)C(=O)N[C@@H](CC(C)C)C(=O)N[C@@H](CC(C)C)C(=O)N[C@@H](CC(N)=O)C(=O)N[C@H](C(=O)NCC(=O)NCC(=O)N1CCC[C@H]1C(=O)N[C@@H](CO)C(=O)N[C@@H](CO)C(=O)NCC(=O)N[C@@H](C)C(=O)N1CCC[C@H]1C(=O)N1CCC[C@H]1C(=O)N1CCC[C@H]1C(=O)N[C@@H](CO)C(N)=O)[C@@H](C)O)C(C)C)C(=O)O  serum enzyme activity (refers to: ALT; rhesus monkey, female; subcutaneous, 20 µg/kg once daily, 28 days): 41 ± 7.4 U/L
CC(C)C[C@H](NC(=O)[C@H](CO[C@@H]1O[C@H](CO)[C@@H](O[C@@H]2O[C@H](CO)[C@H](O)[C@H](O)[C@H]2O)[C@H](O)[C@H]1O)NC(=O)[C@H](CCCCN)NC(=O)[C@H](CC(C)C)NC(=O)[C@H](C)NC(=O)[C@H](CCCCN)NC(=O)[C@H](CCC(=O)O)NC(=O)C(C)(C)NC(=O)[C@H](CC(C)C)NC(=O)[C@H](CC(N)=O)NC(=O)[C@@H]1CCCN1C(=O)[C@H](CC(C)C)NC(=O)[C@H](Cc1ccccc1)NC(=O)CNC(=O)[C@H](NC(=O)[C@@H](N)Cc1ccc(O)cc1)[C@H](C)O)C(N)=O  Ki (OPRD1 (Homo sapiens, UniProt P41143); ligand displacement, radioligand; pH 7.5, cell membranes): 0.019 µM
CC(NC(=O)c1ccccc1[Se][Se]c1ccccc1C(=O)NC(C)C(=O)O)C(=O)O (centres unmarked)  IC50 (rep main protease; enzyme activity, inhibitor): 5.44 µM
Cc1cc(O)cc(C)c1C[C@H](N)C(=O)NCC(=O)NCC(=O)N[C@@H](Cc1ccccc1)C(=O)N[C@H](C(=O)NCC(=O)N[C@@H](C)C(=O)N[C@@H](CCCNC(=N)N)C(=O)N[C@@H](CCCCN)C(=O)N[C@@H](CO)C(=O)N[C@@H](C)C(=O)N[C@@H](CCCNC(=N)N)C(=O)N[C@@H](CCCCN)C(N)=O)[C@@H](C)O  EC50 (OPRM1; GTPγS binding, agonist, radiometric; cell membranes): 0.00263 µM
COc1ccc(F)c2[nH]c(C(=O)N[C@@H](CC(C)C)C(=O)N[C@@H](C[C@@H]3CCNC3=O)C(=O)c3nc4ccccc4s3)cc12  IC50 (rep main protease; enzyme activity, inhibitor): 0.054 µM
Cc1ccccc1NC(=S)N/N=C/c1ccc(O)cc1  IC50 (rep main protease; enzyme activity, inhibitor, FRET): 28.8 µM
CC(C)C[C@H](NC(=O)[C@H](CO[C@@H]1O[C@H](CO)[C@@H](O[C@@H]2O[C@H](CO)[C@H](O)[C@H](O)[C@H]2O)[C@H](O)[C@H]1O)NC(=O)[C@H](CCCCN)NC(=O)[C@H](CC(C)C)NC(=O)C(C)(C)NC(=O)[C@H](CCCCN)NC(=O)[C@H](CCC(=O)O)NC(=O)[C@H](C)NC(=O)[C@H](CC(C)C)NC(=O)[C@H](CC(N)=O)NC(=O)[C@@H]1CCCN1C(=O)[C@H](CC(C)C)NC(=O)[C@H](Cc1ccccc1)NC(=O)CNC(=O)[C@H](NC(=O)[C@@H](N)Cc1ccc(O)cc1)[C@H](C)O)C(N)=O  Ki (OPRM1; radioligand displacement; CHO membranes; 60 min, pH 7.5, 25 °C, added: 0.25 nM [3H]DAMGO): 0.0082 ± 0.0006 µM
O=C(CCN(Cc1ccco1)C(=O)c1csc(Nc2ccccc2)n1)NCc1cccc(C(F)(F)F)c1  IC50 (rep main protease; Rev-Nluc reporter, inhibitor): < 50 µM
Cn1cc(C(=O)Nc2ccccn2)c2ccccc21  IC50 (rep main protease; enzyme activity, inhibitor): 4.53 µM
CN(C)CCCCNC(=O)CC(Cc1ccc(F)cc1)NC(=O)C(Cc1ccc(Cl)cc1Cl)NC(=O)C(Cl)Cc1ccccc1C#N (centres unmarked)  IC50 (rep main protease; enzyme activity, inhibitor, fluorescence): 3 µM
O=c1c(O)c(-c2ccc(O)cc2)oc2c(O)c(O)cc(O)c12  IC50 (rep main protease; inhibitor): 6.25 ± 0.3 µM
CC(=O)N[C@H](Cc1ccc(O)cc1)C(=O)N[C@@H](CCCNC(=N)N)C(=O)N[C@@H](Cc1ccccc1)C(=O)N[C@H]1CCC[C@@H]1C(=O)N[C@@H](CCCNC(=N)N)C(=O)N[C@@H](CC(N)=O)C(=O)N[C@H]1CCC[C@@H]1C(=O)N[C@H](C(=O)N[C@@H](Cc1ccccc1)C(=O)N[C@H]1CCC[C@@H]1C(=O)N[C@@H](Cc1ccccc1)C(=O)N[C@@H](Cc1ccc(O)cc1)C(=O)N[C@H]1CCC[C@@H]1C(=O)N[C@H](C(=O)N[C@@H](CC(=O)O)C(N)=O)[C@@H](C)O)C(C)C  IC50 (rep main protease; enzyme activity, inhibitor): 0.96 µM
C#Cc1cccc(CCNC(=O)[C@@H](c2cncnc2)N(C(=O)[C@H](F)Cl)c2ccc(S(F)(F)(F)(F)F)cc2)c1  IC50 (rep main protease; enzyme activity, inhibitor): 0.11 µM
N#Cc1ccccc1C[C@@H](N)C(=O)N[C@H](Cc1ccc(Cl)cc1Cl)C(=O)N[C@H](CC(=O)NCCNc1nnc(N)[nH]1)Cc1ccc(F)cc1  IC50 (rep main protease; enzyme activity, inhibitor, fluorescence): 0.3 µM and 0.6 µM
Cc1cc(C(=O)O)ccc1C1=NN(c2ccc(C#N)c(Cl)c2)C(C)C1 (centres unmarked)  IC50 (Replicase polyprotein 1ab, methyltransferase (rep, Severe acute respiratory syndrome coronavirus 2, UniProt P0DTD1); enzyme activity, inhibitor): 1.53 µM
COCn1cc(-c2cc(-c3cnn(C(F)F)c3)cc([C@@H](C)NC(=O)c3cc(OCCN(C)C)ccc3C)c2)cn1  IC50 (Replicase polyprotein 1ab, papain-like protease (rep, Severe acute respiratory syndrome coronavirus 2, UniProt P0DTD1); enzyme activity, inhibitor, FRET): 0.121 µM
O=C1CC(c2ccccc2)Oc2cc(O[C@@H]3O[C@H](CO)[C@@H](O)[C@H](O)[C@H]3O)ccc21 (some centres unmarked)  IC50 (Replicase polyprotein 1ab, nsp13 helicase (rep, Severe acute respiratory syndrome coronavirus 2, UniProt P0DTD1); helicase ATPase activity, inhibitor; added: poly(A) ssRNA): > 30 µM
Nc1ncnc2c1ncn2[C@@H]1O[C@H](CSCc2cc(C(=O)O)cc(-c3ccc(O)cc3)c2)[C@@H](O)[C@H]1O  IC50 (Replicase polyprotein 1ab, nsp16 with nsp10 (rep, Severe acute respiratory syndrome coronavirus 2, UniProt P0DTD1); methyltransferase activity, inhibitor; 30 min, 30 °C, added: SAM 10 µM): 0.0008 ± 5e-05 µM
Cc1nc(-c2cccnc2)sc1C(=O)Nc1ccccc1-c1cn2c(CN3CCOCC3)csc2n1  IC50 (rep main protease; enzyme activity, inhibitor): 85 µM

Some of these lines once more:
Nc1ncnc2c1ncn2[C@@H]1O[C@H](CSCc2cc(C(=O)O)cc(-c3ccc(O)cc3)c2)[C@@H](O)[C@H]1O  IC50 (Replicase polyprotein 1ab, nsp16 with nsp10 (rep, Severe acute respiratory syndrome coronavirus 2, UniProt P0DTD1); methyltransferase activity, inhibitor; 30 min, 30 °C, added: SAM 10 µM): 0.0008 ± 5e-05 µM
Cc1nc(-c2cccnc2)sc1C(=O)Nc1ccccc1-c1cn2c(CN3CCOCC3)csc2n1  IC50 (rep main protease; enzyme activity, inhibitor): 85 µM
